# Results gathered from unrelated publications.
# Numbered parts are unrelated; each lists some results of a single study. Positions count from the first letter of the parent shown.

# Study 1
# Target: CCNA1, cyclin fold, Cln2 fusion (human)
# Technique: yeast growth competition, sequencing
# Sample: yeast
# Notes: weak parent motif
# Relative to: not given
# Direction: higher = stronger binding
# Starting sequence: WEE1 docking peptide (human); HKTFRKLRLFDTP
Change,normalised enrichment score
F10M,0.241
K6P,0.469
H1L,0.0643
L9F,0.481
D11P,0.315
K2T,0.324
T3C,-0.202
F10A,0.778
P13A,0.171
K2G,0.204
L9Y,0.618

# Study 2
# Target: CREB3L3, bZIP domain (human)
# Technique: DHFR protein complementation
# Sample: yeast
# Notes: single substitutions, most at no-binding floor
# Relative to: wild-type JUN-FOS pair
# Direction: higher = stronger binding
# Starting sequence: JUN, bZIP domain (human); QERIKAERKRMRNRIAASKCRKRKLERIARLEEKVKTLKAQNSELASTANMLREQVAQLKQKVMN; partner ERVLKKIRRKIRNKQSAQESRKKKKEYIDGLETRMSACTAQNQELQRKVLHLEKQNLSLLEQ
Change,binding fitness [natural log]
S43N,-1.44
E44W,-1.57
L45F,-1.48
A46H,-1.56
A46E,-1.48
A40E,-1.27
A46M,-1.38
Q41V,-1.56
L52I,-0.97
L52V,-1.4

# Study 3
# Target: ABI1, truncated, D143A, DHFR fusion (Arabidopsis thaliana)
# Technique: DHFR PCA, deep sequencing
# Sample: yeast
# Notes: methotrexate growth selection, single substitutions
# With: (+)-ABA 17 µM
# Relative to: wild-type fitted maximum
# Direction: higher = stronger binding
# Starting sequence: PYL1, truncated, DHFR fusion (Arabidopsis thaliana); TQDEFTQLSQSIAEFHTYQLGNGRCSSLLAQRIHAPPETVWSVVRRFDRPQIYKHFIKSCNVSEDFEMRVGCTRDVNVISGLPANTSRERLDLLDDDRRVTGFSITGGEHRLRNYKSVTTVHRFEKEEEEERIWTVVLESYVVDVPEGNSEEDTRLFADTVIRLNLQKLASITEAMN; partner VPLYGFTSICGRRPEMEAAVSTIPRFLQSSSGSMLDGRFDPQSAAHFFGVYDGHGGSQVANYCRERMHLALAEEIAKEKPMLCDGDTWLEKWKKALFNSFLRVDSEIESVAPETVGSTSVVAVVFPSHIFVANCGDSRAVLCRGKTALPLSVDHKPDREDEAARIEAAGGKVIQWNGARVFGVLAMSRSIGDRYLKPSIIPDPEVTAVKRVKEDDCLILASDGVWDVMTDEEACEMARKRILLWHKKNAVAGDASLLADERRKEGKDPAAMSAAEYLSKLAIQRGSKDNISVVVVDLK
Change,relative binding score [%]
V44D,-17.5
R163A,56.4
L91F,-8.44
V43P,0.836
K126N,89.6
H16L,-2.39
Y115E,3.75
T1P,86.5

# Mixed results
Molecule,target,assay,system,conditions,scale,measurement,result
"PhoQ, residues 284 288 289 292 302 303 WSHMKI","PhoP, residues 12 14 15 18 19 YHFSH (Escherichia coli, UniProt P23836)","Sort-seq, measured: YFP reporter",E. coli,"PhoQ-PhoP variant library, with: 10 µM Mg2+","relative to: high Mg2+ state, higher = stronger signaling",fold induction,2.63
